# Measured values collected from several papers.
# Values joined by “and” are separate records of one study, mostly repeats; a detail may differ. Numbers after ± are the reported error.
Compound,cell line,test,system,setting,IC50
C#CCCCC[C@H](C)C[C@@H](C)C(=O)N[C@@H](C)C(=O)N1CCC[C@H]1C(=O)N[C@H](C(=O)N[C@H](C(=O)N[C@H](C(=O)N[C@@H](Cc1ccccc1)C(=O)N1CCC[C@H]1C(=O)N1CCC[C@H]1C(C)=O)C(C)C)C(C)C)C(C)C,DU-145,"cell growth or viability, SRB",,,1180 nM and 1660 nM and 1320 nM
CCOc1cc(Br)ccc1-n1c(CN2CCNCC2)nc2ccccc2c1=O,PANC-1,"cell growth or viability, ATP luminescence",,72 h,54 nM
CC(C)C12OC1C1OC13C1(C)CCC4=C(COC4=O)C1CC1OC13C2OC(=O)CCCOC1OC(CO)C(O)C(O)C1O (stereo not drawn),A253,"cell growth or viability, XTT",,47 h,540 nM
CC(=O)N[C@H](C(=O)N[C@@H](CCCNC(=N)N)C(=O)N[C@@H](CCCCN)C(=O)N[C@@H](CCCNC(=N)N)C(=O)N[C@H](C(=O)N[C@@]1(C)CCCC=CCCC[C@@](C)(C(=O)N[C@@H](CCC(N)=O)C(=O)N[C@@H](CCC(=O)O)C(=O)N[C@@H](CCCNC(=N)N)C(=O)N[C@@H](CCC(=O)O)C(=O)N[C@@H](CC(C)C)C(=O)N[C@H](C(=O)N[C@@H](CCC(=O)O)C(N)=O)C(C)C)NC(=O)[C@H](CC(C)C)NC(=O)[C@H](CCCNC(=N)N)NC(=O)[C@H](CCCNC(=N)N)NC1=O)[C@@H](C)O)C(C)C,SK-N-MC,cell viability,,"18 h, serum-free",> 10000 nM
O=C(c1cc(Cc2n[nH]c(=O)c3ccccc23)ccc1F)N1CC(CNC2CC2)C1,MX1,,,,14.4 nM
CC1CCC2C(C)C(OC(=O)CCC(=O)OC3C(C)OC(n4cc(F)c(=O)[nH]c4=O)C3OC(=O)CCC(=O)OC3OC4OC5(C)CCC6C(C)CCC(C3C)C46OO5)OC3OC4(C)CCC1C32OO4 (stereo not drawn),OVCAR-3,"cell growth or viability, CCK-8",,,880 nM
CCOc1ccccc1-n1c(CN2CCOCC2)nc2ccccc2c1=O,PANC-1,"cell growth or viability, ATP luminescence",,72 h,> 10000 nM
CC(C)C12OC1C1OC13C1(C)CCC4=C(COC4=O)C1CC1OC13C2OC(=O)CCC(=O)OC1OC(CO)C(O)C(O)C1O (stereo not drawn),Detroit 562,"cell growth or viability, XTT",,47 h,1420 nM
CCOc1ccc(OCC)c(-n2c(CN3CCNCC3)nc3ccccc3c2=O)c1,PANC-1,"cell growth or viability, ATP luminescence",,72 h,8100 nM
CC(=O)N[C@H](C(=O)N[C@@H](CCCNC(=N)N)C(=O)N[C@@H](CCCCN)C(=O)N[C@@H](CCCNC(=N)N)C(=O)N[C@@]1(C)CCCC=CCCC[C@@](C)(C(=O)N[C@@H](CC(C)C)C(=O)N[C@@H](CCC(N)=O)C(=O)N[C@@H](CCC(=O)O)C(=O)N[C@@H](CCCNC(=N)N)C(=O)N[C@@H](CCC(=O)O)C(=O)N[C@@H](CC(C)C)C(=O)N[C@H](C(=O)N[C@@H](CCC(=O)O)C(N)=O)C(C)C)NC(=O)[C@H](CCCNC(=N)N)NC(=O)[C@H](CCCNC(=N)N)NC(=O)[C@H](CC(C)C)NC1=O)C(C)C,SK-N-MC,cell viability,,"18 h, serum-free",> 100000 nM
C[C@@H]1COCCN1c1nc(NCc2cccnc2C(F)(F)F)c2cccnc2n1,HepG2 spheroids,cytotoxicity,,,> 250000 nM
O=C1C=CC(=C(c2ccc(O)cc2)c2c(C#Cc3ccc(O)cc3)cccc2-c2ccc(O)cc2)C=C1,MGC-803,"cell growth or viability, MTT",,48 h,14800 nM
CCOc1cc(Cl)ccc1-n1c(CN2CCNCC2)nc2ccccc2c1=O,PANC-1,"cell growth or viability, ATP luminescence",,72 h,36 nM
Cc1cc(Oc2nc(N3CC[C@@H](c4ccncc4)C3)ncc2F)[nH]n1,PLC-PRF-5,cell proliferation,liver cancer,,35500 nM
Cc1sc2c(c1C)C(c1ccc(-c3cccc(NC(=O)c4cnn5cccnc45)c3)cc1)=N[C@@H](CC(N)=O)c1nnc(C)n1-2,KG-1,"cell growth or viability, ATP luminescence",,72 h,55.3 nM
CC(=O)[O][Pt]([NH2])([NH2])([Cl])([Cl])[O]C(=O)C(Cl)Cl,PSN1,"cell growth or viability, MTT",,72 h,940 nM
CCCCCCCC(=O)NCCCC[C@H](NC(=O)CCCCCCC)C(=O)N[C@@H](CCCCNC(=O)CCCCCCC)C(=O)NCC(=O)NCC(=O)NCC(=O)N[C@@H](CS)C(=O)N[C@@H](CCCNC(=N)N)C(=O)N[C@@H](CCCCN)C(=O)N1CCC[C@H]1C(=O)N[C@@H](CS)C(=O)N[C@@H](CCCNC(=N)N)C(=O)N[C@@H](CCCCN)C(=O)N1CCC[C@H]1C(=O)N[C@@H](CS)C(=O)N[C@@H](CCCNC(=N)N)C(=O)N[C@@H](CCCCN)C(=O)N1CCC[C@H]1C(N)=O,IPEC-J2,"cell growth or viability, MTT",,24 h,117000 nM
CC[C@H](C)[C@H](NC(=O)[C@H](C)NC(=O)[C@H](Cc1c[nH]cn1)NC(=O)[C@H](CC(C)C)NC(=O)CNC(=O)[C@H](Cc1ccccc1)NC(=O)CNC(=O)[C@H](Cc1ccc(O)cc1)NC(=O)CNC(=O)[C@H](CCCCN)NC(=O)[C@@H](NC(=O)[C@H](Cc1ccccc1)NC(=O)[C@@H](NC(=O)[C@H](CC(=O)O)NC(=O)[C@H](CCCNC(=N)N)NC(=O)[C@H](C)NC(=O)[C@H](CO)NC(=O)[C@H](CCCCN)NC(=O)CNC(=O)[C@H](CC(C)C)NC(=O)[C@H](CC(=O)O)NC(=O)[C@H](C)NC(=O)[C@H](Cc1ccc(O)cc1)NC(=O)[C@@H](NC(=O)[C@@H]1CCCN1C(=O)[C@@H]1CCCN1C(=O)[C@@H](NC(=O)[C@H](C)NC(=O)[C@@H](N)CCSC)C(C)C)[C@@H](C)O)C(C)C)[C@@H](C)O)C(=O)N[C@@H](Cc1ccc(O)cc1)C(=O)N1CCC[C@H]1C(=O)N[C@@H](CCCNC(=N)N)C(=O)N[C@@H](Cc1c[nH]cn1)C(=O)O,CLL patient PBMCs,"cell death, PI staining flow cytometry",,90 min,> 25000 nM
Cc1ccc(C(C)C)cc1.F[P-](F)(F)(F)(F)F.[Cl][Os+]1[N]2C=CC=c3ccc4c(c32)[N]1C=CC=4,Hs 683,"cell growth or viability, MTT",,,77900 nM
CCC1(c2ccc(NC(=O)CCC(=O)OC3OC4OC5(C)CCC6C(C)CCC(C3C)C46OO5)cc2)CCC(=O)NC1=O (mixture of isomers),PC-3 (p53 null),"cell growth, CCK-8",,48 h,> 50000 nM
CC(=O)N[C@H](C(=O)N[C@@H](CCCNC(=N)N)C(=O)N[C@@H](CCCCN)C(=O)N[C@@H](CCCNC(=N)N)C(=O)N[C@]1(C)CCCCCCC=CCCC[C@@](C)(C(=O)N[C@@H](CCCNC(=N)N)C(=O)N[C@@H](CCC(=O)O)C(=O)N[C@@H](CC(C)C)C(=O)N[C@H](C(=O)N[C@@H](CCC(=O)O)C(N)=O)C(C)C)NC(=O)[C@H](CCC(N)=O)NC(=O)[C@H](CC(C)C)NC(=O)[C@H](CC(C)C)NC(=O)[C@H](CCCNC(=N)N)NC(=O)[C@H](CCCNC(=N)N)NC(=O)[C@H](CC(C)C)NC1=O)C(C)C,H3255 (EGFR L858R),"cell viability, ATP luminescence",,18 h,1910 ± 380 nM

# Some of these lines once more:
Compound,cell line,test,system,setting,IC50
CC(C)C12OC1C1OC13C1(C)CCC4=C(COC4=O)C1CC1OC13C2OC(=O)CCCOC1OC(CO)C(O)C(O)C1O (stereo not drawn),A253,"cell growth or viability, XTT",,47 h,540 nM
CC(C)C12OC1C1OC13C1(C)CCC4=C(COC4=O)C1CC1OC13C2OC(=O)CCC(=O)OC1OC(CO)C(O)C(O)C1O (stereo not drawn),Detroit 562,"cell growth or viability, XTT",,47 h,1420 nM
CCOc1cc(Br)ccc1-n1c(CN2CCNCC2)nc2ccccc2c1=O,PANC-1,"cell growth or viability, ATP luminescence",,72 h,54 nM
